Measurements gathered from unrelated publications.

| Structure (SMILES) | tested on | assay | test system | conditions | scale | measurement | result |
| --- | --- | --- | --- | --- | --- | --- | --- |
| C[C@]12CCC(O)CC1=CCC1C2CC[C@]2(C)/C(=N\NC(N)=S)CCC12 (stereo partly drawn) | Trypanosoma cruzi | reporter mRNA translation, inhibitor, measured: capped polyadenylated Renilla luciferase mRNA | cell-free extract | concentration not given | baseline: control RNA | relative translation | 114% |
| Cn1c2cc([S+](C)[O-])sc2c2cnn(Cc3cccc(N)c3)c(=O)c21 (stereo not drawn) |  |  | male BALB/c mouse, plasma | intravenous, 1 mg/kg, single dose |  | C0 | 877 ng/mL |
| C/C(N)=N/C(=N\S(=O)(=O)c1ccc(C(F)(F)F)cc1)N1C[C@H](c2ccccc2)C(c2ccc(Cl)cc2)=N1 |  |  | male C57BL/6 mouse, plasma | intravenous, 10 mg/kg |  | C0 | 5620 ng/mL |
| N#CCCC1CCN(C(=S)c2ccc(-c3cc(Cl)ccc3Cl)o2)CC1 |  |  | male BALB/c mouse, plasma | intravenous, 5 mg/kg |  | C0 | 4640 ng/mL |
| COc1cnc2cccc(N3CCc4c(cc(Cn5ccnc5)cc4-c4cn(C)nc4C(F)(F)F)C3=O)c2c1 |  |  | male CD-1 mouse, plasma | intravenous, 3 mg/kg |  | C0 | 3390 ng/mL |
| O=C1CCC(N2Cc3cc(C(=O)O)c(F)cc3C2=O)C(=O)N1 (stereo not drawn) |  |  | male CD-1 mouse, plasma | intravenous, 1 mg/kg |  | C0 | 4920 ng/mL |
| CC[C@H](C)[C@H](NC(=O)[C@H](Cc1ccccc1)NC(=O)[C@H](CCC(=O)O)NC(=O)[C@H](CCCCN)NC(=O)[C@H](C)NC(=O)[C@H](C)NC(=O)[C@H](CCC(N)=O)NC(=O)CNC(=O)[C@H](CCC(=O)O)NC(=O)[C@H](CC(C)C)NC(=O)[C@H](Cc1ccc(O)cc1)NC(=O)[C@H](CO)NC(=O)[C@H](CO)NC(=O)[C@@H](NC(=O)[C@H](CC(=O)O)NC(=O)[C@H](CO)NC(=O)[C@@H](NC(=O)[C@H](Cc1ccccc1)NC(=O)[C@@H](NC(=O)CNC(=O)[C@H](CCC(=O)O)NC(=O)[C@H](C)NC(=O)[C@@H](N)Cc1c[nH]cn1)[C@@H](C)O)[C@@H](C)O)C(C)C)C(=O)N[C@@H](C)C(=O)N[C@@H](Cc1c[nH]c2ccccc12)C(=O)N[C@@H](CC(C)C)C(=O)N[C@H](C(=O)N[C@@H](CCCNC(=N)N)C(=O)NCC(=O)N[C@@H](CCCNC(=N)N)C(=O)NCC(=O)O)C(C)C |  |  | male CD-1 mouse, plasma | intravenous, 1 mg/kg, single dose |  | C0 | 1930 ng/mL |
| CCn1cc(-c2cc(Cn3ccnc3)cc3c2CCN([C@H](c2cc(OC)ccn2)C2CC2)C3=O)c(C(F)(F)F)n1 |  |  | male CD-1 mouse, plasma | intravenous, 3 mg/kg |  | C0 | 4430 ng/mL |
| O=C(O)c1ccc(/C=C2\SC(=S)N(Cc3cccc(C(F)(F)F)c3)C2=O)cc1 |  |  | C57BL/6 mouse, blood | intravenous, 5 mg/kg |  | C0 | 12400 ng/mL |
| COc1ccc(C(=O)OC2CCN(C)CC2)cc1 | Trypanosoma cruzi | reporter mRNA translation, inhibitor, measured: capped polyadenylated Renilla luciferase mRNA | cell-free extract | concentration not given | baseline: control RNA | relative translation | 100% |
| O=C(Nc1ccc(C(F)F)cc1)[C@H](CC1CCCCC1)Nc1nn2c(=O)ccnc2s1 |  |  | female nude mouse, plasma | intravenous, 1 mg/kg |  | C0 | 1060 ng/mL |
| O=C1C2CC3CC1CC(C(=O)N1CCN(c4ccc([N+](=O)[O-])c5ncccc45)CC1)(C3)C2 |  |  | male CD-1 mouse, plasma | intravenous, 1 mg/kg |  | C0 | 1310 ng/mL |

Repeated from above:
| Structure (SMILES) | tested on | assay | test system | conditions | scale | measurement | result |
| --- | --- | --- | --- | --- | --- | --- | --- |
| O=C1CCC(N2Cc3cc(C(=O)O)c(F)cc3C2=O)C(=O)N1 (stereo not drawn) |  |  | male CD-1 mouse, plasma | intravenous, 1 mg/kg |  | C0 | 4920 ng/mL |
| O=C1C2CC3CC1CC(C(=O)N1CCN(c4ccc([N+](=O)[O-])c5ncccc45)CC1)(C3)C2 |  |  | male CD-1 mouse, plasma | intravenous, 1 mg/kg |  | C0 | 1310 ng/mL |
